Measurements from different studies.
Protocols differ between the studies behind these lines.

CC(=O)c1c(C)c2cnc(Nc3ccc(C4CCN(CCS(C)(=O)=O)CC4)cn3)nc2n(C2CCCC2)c1=O — result for “patients with AST increased”: 1.2% (HR+/HER2- advanced breast cancer patients; oral, dose not given, grade 3/4,, total).
CN1CC[C@@H](c2c(O)cc(O)c3c(=O)cc(-c4ccc(C(F)(F)F)cc4Cl)oc23)[C@@H]1CO — result for “patients with adverse event”: 10% (refers to: Thrombocytopenia; relapsed AML; oral, 200 mg, grade 3-4, intermittent dosing).
Under “patients with adverse event”, CCN(CCO)CCCC(C)Nc1ccnc2cc(Cl)ccc12 (stereo not drawn) is recorded as 66% (refers to: Dizziness grade 1; newly diagnosed glioblastoma patients; oral, 200 mg/dose, with radiotherapy and temozolomide).
COc1c(OCCCN2CCOCC2)ccc2c1N=C(NC(=O)c1cnc(N)nc1)N1CCN=C21 — result for “patients with adverse event”: 26% (refers to: Chills; patients with advanced malignancies; intravenous, dose not given, any grade, all cohorts, with: gemcitabine).
For N[C@@H]1c2ccccc2OC12CCN(c1cnc3c(N4CCCc5ncccc54)n[nH]c3n1)CC2, “patients with serious TEAE” read 0% (advanced solid tumour patients; oral, 10 mg once daily).
Under “patients with adverse events”, Nc1nc2cc(-c3ccc4ncc(C(=O)N5CCOCC5)n4c3)ccc2o1 is recorded as 56% (refers to: Nausea, any cause, all grades; patients with advanced solid tumours; dose not given).
O=C1Nc2cc3[nH]nc(-c4ccncc4)c3cc2CN1Cc1ccccc1 — result for “patients with dyspepsia”: 11% (CTCAE v4.03; advanced solid tumour patients; intravenous, 6.4 mg/kg).
C=CCNc1c(O)cc2c(O)c1C[C@@H](C)C[C@H](OC)[C@H](O)[C@@H](C)/C=C(\C)[C@H](OC(N)=O)[C@@H](OC)/C=C\C=C(/C)C(=O)N2: “patients with lipase increase” 17% (unresectable or metastatic sarcoma; intravenous, 90 mg/m^2, grade 3-4 lab change).
For CO[C@H]1C[C@@H]2CC[C@@H](C)[C@@](O)(O2)C(=O)C(=O)N2CCCC[C@H]2C(=O)O[C@H]([C@H](C)C[C@@H]2CC[C@@H](OC(=O)NCCOCCOCCOCCOCCOCCOCCOCCOCCC(=O)N3CCc4cc(Cn5nc(-c6ccc7oc(N)nc7c6)c6c(N)ncnc65)ccc4C3)[C@H](OC)C2)C[C@@H](O)[C@H](C)/C=C(\C)[C@@H](O)[C@@H](OC)C(=O)[C@H](C)C[C@H](C)/C=C/C=C/C=C/1C, “patients with AE” read 0% (refers to: treatment-related AEs; patients with advanced solid tumours; intravenous, 1.6 mg/3 mg, any grade, weekly).
